Results pooled from the literature.
Parts stem from different laboratories: compare values within a part only.

Sample 1
Target: Histone acetyltransferase KAT6A, both winged helices, GST fusion (KAT6A, Homo sapiens, UniProt Q92794, residues 1-181)
Method: protein binding microarray
Form: double-stranded DNA, one strand shown
Medium: in vitro
Concentration: not given
Notes: 8-mer, flanks averaged, mean of 2 arrays, mostly near background
Reference: not given
Direction: higher = stronger binding
Residues (chain): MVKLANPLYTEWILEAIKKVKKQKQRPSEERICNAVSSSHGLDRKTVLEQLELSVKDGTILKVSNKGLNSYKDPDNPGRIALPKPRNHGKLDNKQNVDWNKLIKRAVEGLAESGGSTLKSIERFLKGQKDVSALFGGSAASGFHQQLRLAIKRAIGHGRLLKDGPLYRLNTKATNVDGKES
The E-score of `GCACCGGA` is reported as 0.228.
For `AAAGGATC`, the E-score was -0.0635.
For `AAGTGATT`, the E-score was -0.177.
With `GCGACGAC` the E-score was 0.0526.
For `TCGGCCAA`, the E-score was 0.0921.
`GATTCTCC` has an E-score of -0.0561.
`AGGTAAAA` gave an E-score of -0.121.
For `GTTGTCTA`, the E-score was -0.0565.
`AGGTGCAT` has an E-score of -0.207.
With `AGGCGATG` the E-score was 0.0262.
With `GTCGGGTA` the E-score was 0.132.
For `CCTAGCCC`, the E-score was -0.165.
`ACAAATTG` gave an E-score of -0.0414.
`CAGTCGGG` has an E-score of 0.138.
`CACTGCGA` has an E-score of 0.158.
For `ACACTTAT`, the E-score was -0.177.
With `GGACGGAC` the E-score was 0.157.
`CTGACAGC` gave an E-score of 0.00436.
With `TATGGGGA` the E-score was -0.12.

Sample 2
Target: Prothrombin, mature alpha-thrombin (F2, Homo sapiens, UniProt P00734)
Method: aptamer microarray, sandwich
Form: DNA with 2'F-ANA
Medium: in vitro
Concentration: 200 nM
Notes: whole 15-mer aptamer, many near background
With: Cy3 exosite-II aptamer, 400 nM
Direction: higher = stronger binding
Oligonucleotide: GGTTGGTGTGGTTGG
`2'F-ANA at 1 2 3 4 6 10 11 12 13` — result for “mean fluorescence intensity”: 63.8 a.u.
Under “mean fluorescence intensity”, `2'F-ANA at 2 4 7 8 10 11 12 13` is recorded as 98.4 a.u.
Under “mean fluorescence intensity”, `2'F-ANA at 2 3 4 9 10 11 15` is recorded as 238 a.u.
`2'F-ANA at 3 8 10 11 14`: “mean fluorescence intensity” 449 a.u.
`2'F-ANA at 2 3 6 15`: “mean fluorescence intensity” 764 a.u.
`2'F-ANA at 1 3 4 6 8 9 10 11 13` — result for “mean fluorescence intensity”: 55.4 a.u.
Under “mean fluorescence intensity”, `2'F-ANA at 1 5 6 7 8 12 14` is recorded as 49.8 a.u.
`2'F-ANA at 1 3 7 11 14 15`: “mean fluorescence intensity” 90 a.u.
`2'F-ANA at 1 4 6 8 9 11 13 15` — result for “mean fluorescence intensity”: 75.4 a.u.
Under “mean fluorescence intensity”, `2'F-ANA at 2 4 5 8 9 10 12 13` is recorded as 46.5 a.u.
Under “mean fluorescence intensity”, `2'F-ANA at 3 7 9 11 13` is recorded as 891 a.u.
For `2'F-ANA at 4 6 7 9 13 15`, “mean fluorescence intensity” read 130 a.u.
Under “mean fluorescence intensity”, `2'F-ANA at 1 4 5 6 7 9 11 12 15` is recorded as 80.7 a.u.
Under “mean fluorescence intensity”, `2'F-ANA at 1 2 3 4 5 7 10 12 13 15` is recorded as 47.2 a.u.
`2'F-ANA at 2 3 4 5 7 11 15`: “mean fluorescence intensity” 95.9 a.u.
Under “mean fluorescence intensity”, `2'F-ANA at 1 4 5 7 8 11 15` is recorded as 54.2 a.u.
For `2'F-ANA at 1 2 3 5 8 9 10 11 12 14 15`, “mean fluorescence intensity” read 51.7 a.u.
`2'F-ANA at 1 2 5 6 7 9 10 11 12 13 14`: “mean fluorescence intensity” 59.2 a.u.
For `2'F-ANA at 1 3 4 5 7 11 14`, “mean fluorescence intensity” read 44.8 a.u.
`2'F-ANA at 2 5 9`: “mean fluorescence intensity” 126 a.u.
`2'F-ANA at 3 5 10 11 14 15` — result for “mean fluorescence intensity”: 52.5 a.u.
For `2'F-ANA at 1 6 8 11 12 14`, “mean fluorescence intensity” read 68.3 a.u.
For `2'F-ANA at 2 4 6 7 8 10 14 15`, “mean fluorescence intensity” read 58.9 a.u.
`2'F-ANA at 1 2 3 7 8 11 14` — result for “mean fluorescence intensity”: 84.6 a.u.
For `2'F-ANA at 1 3 4 5 8 9 11 13`, “mean fluorescence intensity” read 49.8 a.u.

Sample 3
Target: Sal-like protein 4, full length isoform A (SALL4, Homo sapiens, UniProt Q9UJQ4, residues 1-1053)
Sequence of UniProt Q9UJQ4 (whole entry, looked up): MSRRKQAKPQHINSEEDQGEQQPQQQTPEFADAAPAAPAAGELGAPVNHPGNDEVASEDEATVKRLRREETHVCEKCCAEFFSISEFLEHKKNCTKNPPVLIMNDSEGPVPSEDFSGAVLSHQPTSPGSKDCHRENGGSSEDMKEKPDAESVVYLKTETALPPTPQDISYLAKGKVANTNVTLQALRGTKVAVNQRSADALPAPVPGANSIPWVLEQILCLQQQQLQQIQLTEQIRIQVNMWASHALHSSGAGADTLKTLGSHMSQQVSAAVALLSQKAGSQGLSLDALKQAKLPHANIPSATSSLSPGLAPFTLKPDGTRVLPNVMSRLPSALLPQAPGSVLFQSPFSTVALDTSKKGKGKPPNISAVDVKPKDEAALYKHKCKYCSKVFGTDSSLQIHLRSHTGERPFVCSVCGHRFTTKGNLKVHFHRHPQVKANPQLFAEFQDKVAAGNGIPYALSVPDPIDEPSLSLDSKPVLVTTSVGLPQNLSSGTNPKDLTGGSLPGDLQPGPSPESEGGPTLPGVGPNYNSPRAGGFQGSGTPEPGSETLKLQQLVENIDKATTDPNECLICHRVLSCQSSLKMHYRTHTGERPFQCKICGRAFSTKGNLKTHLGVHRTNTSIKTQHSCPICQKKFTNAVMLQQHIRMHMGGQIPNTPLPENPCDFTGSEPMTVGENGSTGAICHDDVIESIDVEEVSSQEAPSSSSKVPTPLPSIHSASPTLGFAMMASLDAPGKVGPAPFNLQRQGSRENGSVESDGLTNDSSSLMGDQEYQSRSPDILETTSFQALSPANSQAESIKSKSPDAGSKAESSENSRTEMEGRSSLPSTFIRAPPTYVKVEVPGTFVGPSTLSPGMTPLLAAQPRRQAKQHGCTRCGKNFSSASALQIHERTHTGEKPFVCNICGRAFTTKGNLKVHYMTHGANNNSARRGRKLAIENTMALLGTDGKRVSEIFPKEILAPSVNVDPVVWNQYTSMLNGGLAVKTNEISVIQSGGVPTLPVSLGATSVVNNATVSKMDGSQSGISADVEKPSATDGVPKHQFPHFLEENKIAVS
Method: universal PBM
Form: double-stranded DNA, one strand shown
Medium: in vitro
Concentration: 600 nM
Notes: 8-mer, flanks averaged, mean of replicates
Direction: higher = stronger binding
For `CAACACAC`, the E-score was 0.024.
`GTATATCA` gave an E-score of 0.363.
With `AATACATC` the E-score was 0.26.
With `GAAGGCGC` the E-score was -0.237.
`AGTTGAGA` has an E-score of -0.0299.
For `TACATCAA`, the E-score was 0.254.
With `AATCCTTA` the E-score was 0.263.
For `ACATCAAG`, the E-score was 0.201.
`CGAGATCC` gave an E-score of -0.277.
`CTGGACGC` has an E-score of -0.278.
The E-score of `CTAAGGAC` is reported as -0.0209.
`CACGGTCA` gave an E-score of -0.0653.
`CAGTTGAG` has an E-score of -0.208.
`ACAGCCAC` has an E-score of -0.0934.
With `CGAGCACC` the E-score was -0.167.
For `TTCTAAAA`, the E-score was 0.229.
For `CTTTCGCA`, the E-score was -0.0425.
With `ATCTCGGC` the E-score was -0.188.
The E-score of `AATGCCGT` is reported as 0.0809.
The E-score of `GTATGGAC` is reported as 0.00978.
`ATTCAGGA` has an E-score of 0.132.
The E-score of `CCCCGGCG` is reported as -0.382.
With `CCAGCTCC` the E-score was -0.392.
With `CTCGAGTC` the E-score was -0.0942.
With `TCATACAA` the E-score was 0.267.

Sample 4
Target: RNA binding protein fox-1 homolog 2, RRM domain, GST-SBP tag (RBFOX2, Homo sapiens, UniProt O43251-10, residues 100-194)
Method: RNA Bind-n-Seq
Form: RNA
Medium: in vitro
Concentration: 365 nM
Notes: natural RNA segment, single round, ends assumed
Reference: no-protein control
Direction: higher = stronger binding
Residues (chain): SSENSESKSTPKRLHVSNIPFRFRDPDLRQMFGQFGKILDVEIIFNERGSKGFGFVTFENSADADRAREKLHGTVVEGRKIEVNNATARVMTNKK
`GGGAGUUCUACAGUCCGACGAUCCUGACCACGCCCCUCGGCGGGGCCGCCCUCUGCUCCAGCCCUCCCGAUUAAAGCGUGCCCCGGUCCAUACUGUGUCUGUGUUUGUGUUGCGCAUAAGGCAGUAGUGCCUUUGGAAUUCUCGGGUGCCAA`: “RBNS enrichment (R)” 0.756.
For `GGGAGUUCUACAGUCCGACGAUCGAGGGGCCUUCUCAGUGCAGUGUCCAUGUGCCUCUAGCUCCCGUUGGUGUGGAGGGUACUGCCUUGGCCUGUGGCGUUUGUCCUGUCUCAUCUCUCCCAGCAUCCAUAGGUGGAAUUCUCGGGUGCCAA`, “RBNS enrichment (R)” read 1.1.
`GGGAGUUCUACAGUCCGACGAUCGAAUUUAUAUGUUUUUAGCUUUAGUAUUUAACCUUUUAUAACAAAUAAACCAUUUUUUAAAAAAACAGUUCAAUGAAGUGUUCUGUAGUUAUUUCAUCUGGAUGUUGAUUUGGAAUUCUCGGGUGCCAA` — result for “RBNS enrichment (R)”: 1.42.
`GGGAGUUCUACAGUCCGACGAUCCUUUGACCUCCCAGAGGGCUGAACUCUUUCAACUCUGCGCUGCCCAGCCUUCUCAGUGGACUUGCCCCUCCUAAGCAGAGAAGGCCUAUGAGGUUGCUUGCUGCUGGGAAUGGAAUUCUCGGGUGCCAA` — result for “RBNS enrichment (R)”: 0.465.
Under “RBNS enrichment (R)”, `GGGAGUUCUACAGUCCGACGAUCAUGAAUGAAACUAUUACUCCUAAGAAUUACAUUGUAUAGCCCCACAGAUUAAAUUUAAUUAAUUAAUUCAAAACAUGUUAAACGUUACUUUCAUGUACUAUGGAAAAGUAUGGAAUUCUCGGGUGCCAA` is recorded as 1.36.
`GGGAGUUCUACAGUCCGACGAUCCAGGUAUCAACUAGGGGAGGAGAGAGGGUCUCCAGUGUUCCCCCCAUAGAGACCAGGAGGGAGAGCCUCUGUUUUGUAAACUAAGGAUAACCGAGUUUGCUAAAUUGAGAUGGAAUUCUCGGGUGCCAA`: “RBNS enrichment (R)” 0.403.
`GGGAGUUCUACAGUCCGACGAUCCUGACUACUAGACUGUAAGUGUGUUUUAUACAAGUGUGUAAGACUAAGACUCACGUGCACGAAUCGAAGAGUAAAGAGACAAUACUUGUGAACGUGUGAACGUUAACACUUGGAAUUCUCGGGUGCCAA`: “RBNS enrichment (R)” 1.58.
`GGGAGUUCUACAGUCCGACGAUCUCCAACAUCAAUUUCAUUGCACAGACUGACUGUAGUUAAUUUUGUCACAGAAUCUAUGGACUGAAUCUAAUGCUUCCAAAAAUGUUGUUUGUUUGCAAAUAUCAAACAUUUGGAAUUCUCGGGUGCCAA` — result for “RBNS enrichment (R)”: 0.514.
`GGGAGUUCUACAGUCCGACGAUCUAAUUCAAAAACACUAUUGAUAUUGAAUACCAGAUACCACUAUGUAGUAAGUCUUUUAGGAUGAUUUUAAUUUAGUCGUGCGUCAUUUUCUGAUUCUCAUCAUUGGGAGAUGGAAUUCUCGGGUGCCAA` — result for “RBNS enrichment (R)”: 0.466.
Under “RBNS enrichment (R)”, `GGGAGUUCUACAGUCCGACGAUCUUGCCGUCUGGACCAUUGAUUGAUUGUGACCAGUAGCAGAAGGGUGCCUGUUACAUAGAGAGGCUCCUUCUGUCCAAAUGAAUUUCUGUAUACUCUUCUAUAAAUAAAAGUGGAAUUCUCGGGUGCCAA` is recorded as 0.543.
For `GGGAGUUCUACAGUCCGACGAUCUGUUCUCUGUGAAGUGUACUCUUGGGAAGUAUUAACUUUAUAUACAGUUCAGGGGAUCUCAGCUAACUCUAGUGGAAGUGAUACAAAGCAAGCUUAAAUUACAGAAGCAAUGGAAUUCUCGGGUGCCAA`, “RBNS enrichment (R)” read 0.411.
Under “RBNS enrichment (R)”, `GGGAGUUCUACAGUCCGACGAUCAGAAACUUAGUGUAAUGCCCUGCUUUAUAUUUCUUUGACUUAACAUUGGUUUCAGAAAGAAUCUUAGCUACCUAGAAUUUACAGUCUCUGUUUCAUGGCAACACUGGAUAUGGAAUUCUCGGGUGCCAA` is recorded as 0.311.
